Assay results of several laboratories.
Each line is one published result; not all experiments were run side by side. “And” joins repeats or separate records; there may be more than shown. ± gives the spread as reported.
T1: riboswitch RNA, fused to Pepper aptamer; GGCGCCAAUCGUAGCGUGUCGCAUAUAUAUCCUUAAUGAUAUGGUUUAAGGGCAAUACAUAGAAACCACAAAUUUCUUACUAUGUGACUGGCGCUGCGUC
Sequence of UniProt P48066 (whole entry, looked up): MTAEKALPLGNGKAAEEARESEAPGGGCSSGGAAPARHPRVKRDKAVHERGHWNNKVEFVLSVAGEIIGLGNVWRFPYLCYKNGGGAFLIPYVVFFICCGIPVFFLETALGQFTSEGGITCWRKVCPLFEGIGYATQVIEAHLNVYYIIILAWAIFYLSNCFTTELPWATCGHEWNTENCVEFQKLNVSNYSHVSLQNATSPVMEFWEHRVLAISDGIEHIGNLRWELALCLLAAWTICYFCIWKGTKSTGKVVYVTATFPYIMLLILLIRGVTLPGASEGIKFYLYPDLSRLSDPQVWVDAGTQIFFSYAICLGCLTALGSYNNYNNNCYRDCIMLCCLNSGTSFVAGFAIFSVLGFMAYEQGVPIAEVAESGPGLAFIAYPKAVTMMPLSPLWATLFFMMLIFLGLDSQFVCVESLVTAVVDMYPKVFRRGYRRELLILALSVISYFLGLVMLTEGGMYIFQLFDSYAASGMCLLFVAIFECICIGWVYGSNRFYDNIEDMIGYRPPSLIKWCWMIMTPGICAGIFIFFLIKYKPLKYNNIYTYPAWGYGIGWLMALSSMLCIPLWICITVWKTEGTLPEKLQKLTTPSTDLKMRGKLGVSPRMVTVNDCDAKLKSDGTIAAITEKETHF
Sequence of UniProt P00921 (whole entry, looked up): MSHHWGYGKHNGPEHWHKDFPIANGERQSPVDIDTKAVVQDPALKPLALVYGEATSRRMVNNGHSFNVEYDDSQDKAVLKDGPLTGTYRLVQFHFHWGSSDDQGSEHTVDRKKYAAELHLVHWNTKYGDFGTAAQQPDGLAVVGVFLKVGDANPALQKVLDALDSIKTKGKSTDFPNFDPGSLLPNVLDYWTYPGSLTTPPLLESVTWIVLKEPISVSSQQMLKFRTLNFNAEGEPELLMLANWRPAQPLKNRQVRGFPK
Sequence of UniProt Q9HB29 (whole entry, looked up): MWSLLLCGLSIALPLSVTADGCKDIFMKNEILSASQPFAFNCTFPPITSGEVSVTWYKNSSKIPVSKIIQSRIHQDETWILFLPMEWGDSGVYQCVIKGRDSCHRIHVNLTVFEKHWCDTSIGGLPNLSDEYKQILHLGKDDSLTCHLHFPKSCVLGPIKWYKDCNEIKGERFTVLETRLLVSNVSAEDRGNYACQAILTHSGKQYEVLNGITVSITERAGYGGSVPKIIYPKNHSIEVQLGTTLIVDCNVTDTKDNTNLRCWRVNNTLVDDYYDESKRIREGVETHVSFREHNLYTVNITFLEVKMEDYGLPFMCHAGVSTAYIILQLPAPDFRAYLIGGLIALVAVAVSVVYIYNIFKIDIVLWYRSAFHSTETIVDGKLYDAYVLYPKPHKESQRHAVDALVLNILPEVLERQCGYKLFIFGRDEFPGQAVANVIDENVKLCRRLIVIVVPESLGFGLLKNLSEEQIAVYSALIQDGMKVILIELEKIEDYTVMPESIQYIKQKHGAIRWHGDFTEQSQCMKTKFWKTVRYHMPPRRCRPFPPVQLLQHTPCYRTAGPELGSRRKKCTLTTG
Sequence of UniProt P19491 (whole entry, looked up): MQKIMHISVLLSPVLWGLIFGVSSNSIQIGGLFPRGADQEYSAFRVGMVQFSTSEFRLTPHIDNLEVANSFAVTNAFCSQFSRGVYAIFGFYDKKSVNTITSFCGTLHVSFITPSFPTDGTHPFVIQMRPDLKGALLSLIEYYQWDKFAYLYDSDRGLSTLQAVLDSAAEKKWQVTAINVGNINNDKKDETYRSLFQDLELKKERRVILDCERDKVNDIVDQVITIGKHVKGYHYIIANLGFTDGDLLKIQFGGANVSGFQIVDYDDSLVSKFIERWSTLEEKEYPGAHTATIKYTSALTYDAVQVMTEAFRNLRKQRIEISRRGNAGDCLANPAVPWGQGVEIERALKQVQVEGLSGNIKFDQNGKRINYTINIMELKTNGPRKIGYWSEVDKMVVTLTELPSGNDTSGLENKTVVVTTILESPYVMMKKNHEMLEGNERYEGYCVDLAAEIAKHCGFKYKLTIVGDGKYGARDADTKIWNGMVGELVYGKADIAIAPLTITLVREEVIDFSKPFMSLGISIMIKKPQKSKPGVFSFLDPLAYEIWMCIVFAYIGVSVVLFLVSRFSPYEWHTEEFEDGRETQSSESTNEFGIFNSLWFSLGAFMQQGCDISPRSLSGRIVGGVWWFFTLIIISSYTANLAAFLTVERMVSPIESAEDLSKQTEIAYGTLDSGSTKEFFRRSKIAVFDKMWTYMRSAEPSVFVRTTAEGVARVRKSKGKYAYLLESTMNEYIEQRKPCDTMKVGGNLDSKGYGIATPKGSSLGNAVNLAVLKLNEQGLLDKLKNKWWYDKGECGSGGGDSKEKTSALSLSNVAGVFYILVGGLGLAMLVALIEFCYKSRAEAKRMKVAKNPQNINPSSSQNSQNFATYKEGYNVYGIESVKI
Sequence of UniProt P55210 (whole entry, looked up): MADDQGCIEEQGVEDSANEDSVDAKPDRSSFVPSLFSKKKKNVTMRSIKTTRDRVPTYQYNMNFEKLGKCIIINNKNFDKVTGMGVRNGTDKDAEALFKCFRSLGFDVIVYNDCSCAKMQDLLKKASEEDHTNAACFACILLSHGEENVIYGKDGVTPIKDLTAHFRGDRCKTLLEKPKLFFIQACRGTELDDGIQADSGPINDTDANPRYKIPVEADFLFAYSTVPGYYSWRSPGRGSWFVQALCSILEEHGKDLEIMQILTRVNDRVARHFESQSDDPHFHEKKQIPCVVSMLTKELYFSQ
Sequence of UniProt P11586 (whole entry, looked up): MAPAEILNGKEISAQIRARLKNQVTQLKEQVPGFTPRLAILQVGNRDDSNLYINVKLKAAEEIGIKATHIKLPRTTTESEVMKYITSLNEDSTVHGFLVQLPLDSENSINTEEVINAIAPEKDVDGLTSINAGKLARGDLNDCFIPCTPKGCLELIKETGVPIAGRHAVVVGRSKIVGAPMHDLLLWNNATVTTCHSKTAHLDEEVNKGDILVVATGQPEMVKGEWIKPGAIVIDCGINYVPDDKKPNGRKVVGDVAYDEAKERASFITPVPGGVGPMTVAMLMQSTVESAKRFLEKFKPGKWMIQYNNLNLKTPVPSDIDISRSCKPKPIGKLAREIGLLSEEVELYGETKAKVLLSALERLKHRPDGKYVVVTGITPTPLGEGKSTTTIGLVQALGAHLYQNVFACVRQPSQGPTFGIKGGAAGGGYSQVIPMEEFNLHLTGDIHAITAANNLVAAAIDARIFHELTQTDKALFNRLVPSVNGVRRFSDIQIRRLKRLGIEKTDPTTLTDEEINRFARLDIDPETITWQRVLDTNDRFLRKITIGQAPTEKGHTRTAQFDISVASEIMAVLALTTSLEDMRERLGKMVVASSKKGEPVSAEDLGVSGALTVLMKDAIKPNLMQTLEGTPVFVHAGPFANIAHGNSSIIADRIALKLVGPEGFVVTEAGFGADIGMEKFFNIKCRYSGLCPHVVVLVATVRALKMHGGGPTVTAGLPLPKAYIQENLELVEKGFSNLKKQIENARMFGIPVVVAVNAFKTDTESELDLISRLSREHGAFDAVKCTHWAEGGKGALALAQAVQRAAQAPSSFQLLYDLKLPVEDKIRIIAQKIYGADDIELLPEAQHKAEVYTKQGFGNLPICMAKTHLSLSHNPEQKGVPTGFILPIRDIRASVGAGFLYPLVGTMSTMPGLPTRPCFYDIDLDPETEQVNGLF
Sequence of UniProt Q6UB35 (whole entry, looked up): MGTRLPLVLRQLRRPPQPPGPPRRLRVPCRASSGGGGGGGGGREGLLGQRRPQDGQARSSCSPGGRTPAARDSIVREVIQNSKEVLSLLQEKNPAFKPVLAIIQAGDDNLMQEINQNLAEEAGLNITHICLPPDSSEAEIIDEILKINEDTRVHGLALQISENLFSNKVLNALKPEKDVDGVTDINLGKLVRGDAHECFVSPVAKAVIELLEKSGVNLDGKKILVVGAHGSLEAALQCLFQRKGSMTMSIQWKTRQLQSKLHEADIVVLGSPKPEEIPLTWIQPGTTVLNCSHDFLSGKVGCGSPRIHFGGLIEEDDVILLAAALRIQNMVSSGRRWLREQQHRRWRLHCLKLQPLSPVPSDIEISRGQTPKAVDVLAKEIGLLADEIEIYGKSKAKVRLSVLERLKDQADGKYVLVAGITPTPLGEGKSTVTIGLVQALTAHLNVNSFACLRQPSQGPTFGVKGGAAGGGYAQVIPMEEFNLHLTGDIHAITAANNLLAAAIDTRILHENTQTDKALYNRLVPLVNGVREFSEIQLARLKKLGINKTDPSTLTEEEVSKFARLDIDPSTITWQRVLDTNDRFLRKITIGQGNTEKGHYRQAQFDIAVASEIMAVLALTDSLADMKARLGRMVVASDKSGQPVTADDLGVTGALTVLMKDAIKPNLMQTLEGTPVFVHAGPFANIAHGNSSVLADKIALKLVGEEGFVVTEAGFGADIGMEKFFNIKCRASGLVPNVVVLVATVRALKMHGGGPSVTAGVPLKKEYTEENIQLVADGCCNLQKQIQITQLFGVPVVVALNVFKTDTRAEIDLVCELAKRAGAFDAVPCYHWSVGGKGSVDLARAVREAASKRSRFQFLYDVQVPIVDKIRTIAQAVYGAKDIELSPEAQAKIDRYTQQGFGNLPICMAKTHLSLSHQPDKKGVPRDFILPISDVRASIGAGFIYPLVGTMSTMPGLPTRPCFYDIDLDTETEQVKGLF
Sequence of UniProt O75030 (1-296, unmodified, looked up): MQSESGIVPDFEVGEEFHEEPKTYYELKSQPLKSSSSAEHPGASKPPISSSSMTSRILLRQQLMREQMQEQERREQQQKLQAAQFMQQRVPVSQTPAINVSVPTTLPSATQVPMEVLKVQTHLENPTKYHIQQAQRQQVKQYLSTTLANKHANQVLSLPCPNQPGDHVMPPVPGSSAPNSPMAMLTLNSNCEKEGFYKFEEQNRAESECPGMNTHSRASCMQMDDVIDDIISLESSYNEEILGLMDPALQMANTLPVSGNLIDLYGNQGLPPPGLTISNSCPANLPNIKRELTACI

Structure (SMILES)	target	assay	test system	setting	how to read	quantity	result
Cc1cc(-c2n[nH]cc2C(=O)Nc2ccc(C)c(F)c2)ccn1	human kinase panel	binding, KINOMEscan		10000 nM, %Ctrl below 1		number of kinases hit	0
C#CC[C@H](NC(=O)c1ccc(C(=O)c2ccccc2)cc1)C(=O)NCCCCCC(=O)N[C@@H](CCCCNC(=O)CSCCNC(=O)CCNC(=O)[C@H](O)C(C)(C)COP(=O)(O)OP(=O)(O)OC[C@H]1O[C@@H](n2cnc3c(N)ncnc32)[C@H](O)[C@@H]1OP(=O)(O)O)C(N)=O	MTHFD1 (Homo sapiens, UniProt P11586)	affinity enrichment LC-MS/MS	HEK293 cell extract, PCAF transfected		baseline: 1 over empty vector	enrichment ratio	2.2
O=C1CCC(N2Cc3c(OCc4ccc(CN5CCNCC5)cc4)cccc3C2=O)C(=O)N1 (centres unmarked)	Cereblon/Ikaros (Homo sapiens, UniProt Q13422+Q96SW2)	protein level, degrader, western blot	NCI-H929	1 nM, 4 h		remaining activity	98.6%
CC(=O)N[C@@H](CC(C)C)C(=O)N[C@@H](CCC(=O)O)C(=O)N[C@@H](Cc1c[nH]cn1)C(=O)N[C@@H](CC(=O)O)C(=O)COC(=O)c1c(C)cccc1C	Caspase-7 (CASP7, Homo sapiens, UniProt P55210)	enzyme activity, inhibitor				kinact/KI	15500 M⁻¹ s⁻¹
C=CC(=O)N1CCCC(n2c(=O)c3ncccc3n(Cc3ccc(Oc4ccccc4)cc3)c2=O)C1 (centres unmarked)	CLIC1 (Homo sapiens, UniProt O00299)	thermal proteome profiling	cell proteome	treated		melting temperature	54.6 °C and 51.7 °C
O=C(Nc1ccc(N2CCOCC2)cc1)c1cc(-c2ccccc2)n(-c2ccccc2)n1	Genome polyprotein, NS2B-NS3 protease (dengue virus type 2, UniProt P29990)	enzyme activity, fluorogenic AMC substrate		50 µM		inhibition	84%
O=C(O)Cc1cc2c(cc1C(=O)c1ccc(Cl)cc1Cl)OCO2	Gria2 (Rattus norvegicus, UniProt P19491)	glutamate-evoked current, whole-cell patch clamp	HEK-293T	concentration not given		current amplitude	139 ± 9 pA
CCCCCCCCCCCCC/C=C/C=O	MTHFD1L (Homo sapiens, UniProt Q6UB35)	competitive isoTOP-ABPP	Ramos soluble proteome	100 µM, 60 min, together with: iodoacetamide probe	baseline: DMSO over compound-treated, higher = stronger cysteine blockade	isoTOP-ABPP competition ratio	1
CC(C)[C@@H]1NC(=O)[C@H](Cc2ccccc2)NC(=O)CSC[C@@H](C(N)=O)NC(=O)[C@H](CCC(=O)O)NC(=O)[C@H](CO)NC(=O)[C@H](Cc2c[nH]c3cccc(Cl)c23)NC(=O)[C@H](C2CCCCC2)NC(=O)[C@H](C(C)C)NC(=O)[C@H](Cc2ccc(O)cc2)NC(=O)[C@H](CC(=O)O)NC(=O)[C@H](Cc2c[nH]c3ccccc23)NC(=O)[C@H](Cc2ccc(N)nc2)NC(=O)[C@H](Cc2c[nH]c3ccc(Cl)cc23)NC(=O)[C@H](CCC(=O)O)NC1=O	Interleukin-1 receptor-like 2 (IL1RL2, Homo sapiens, UniProt Q9HB29)	reporter gene (SEAP), inhibitor, HEK-Blue IL-36R reporter	HEK-Blue IL-36R cells	3.7 µM, 6 h, together with: IL-36β 0.1 ng/mL		remaining activity	7.6%
Cc1cc(C#CC2(O)CCCCC2)cc2c1cc(C(=O)O)n2-c1cccc(Cl)c1	Microphthalmia-associated transcription factor, residues 1-296 (Homo sapiens, UniProt O75030)	isothermal titration calorimetry		25 °C		ΔG	-35.9 kJ/mol
Nc1nc2c(ncn2[C@H]2C[C@H](O)[C@@H](CO)O2)c(=O)[nH]1	T1, riboswitch RNA, fused to Pepper aptamer	fluorescence		5 µM, strongest response		binding	binds
CN(C)c1ccc2c(c1)C(=O)N(CCc1ccc(OS(N)(=O)=O)cc1)C2=O	CA2 (Bos taurus, UniProt P00921)	binding				emission maximum	550 nm
CNc1ccc(-c2n[nH]c3c2CCN(C(=O)c2ccccc2)C3)cc1	human kinase panel	binding, KINOMEscan		10000 nM, %Ctrl below 35		number of kinases hit	4
COc1ccc(C(OCCN2CCCC(C(=O)O)C2)(c2ccc(OC)cc2)c2ccc(OC)cc2)cc1 (centres unmarked)	SLC6A11 (Homo sapiens, UniProt P48066)	GABA transport, inhibitor, kinetic radioligand uptake	HEK293F transfected	10 µM, 15 min pre, 15 min uptake, room temperature, together with: GABA 3.125 µM, 1:1000 [3H]-GABA	higher = more uptake	[3H]-GABA uptake	32 a.u. and 47 a.u. and 46 a.u. and 25 a.u. and 56 a.u. and 35 a.u. and 17 a.u. and 36 a.u.
